{"data": "Experimental data pooled from the literature", "target": "Activin receptor type-2B (ACVR2B, Homo sapiens, UniProt Q13705)", "note": "Protocols differ between the studies behind these lines."}
{"Compound": "C=CC(=O)N1CCc2ccc(-n3c(=O)ccc4cnc5ccc(-c6cnn(C)c6)cc5c43)cc21", "assay": "KINOMEscan", "conditions": "1 µM", "how to read": "reference: DMSO control", "quantity": "remaining binding", "value": "70%"}
{"Compound": "Cc1cnc2nc1Nc1cccc(c1)COC/C=C/COCc1cc(ccc1OCCN1CCOCC1)N2", "conditions": "concentration not given", "quantity": "percent of control", "value": "92%"}
{"Compound": "Nc1ncc2c(n1)-c1c([nH]c3ccc(C4=CCOCC4)cc13)CCC2", "assay": "binding, competition with immobilised ligand", "conditions": "1 µM", "quantity": "remaining binding", "value": "94%"}
{"Compound": "Cc1ccc(-c2c(/C=C(\\C#N)C(=O)NC(C)C)n(CCCO)c3ncnc(N)c23)cc1", "assay": "cell-free assay, competition with immobilised ligand", "conditions": "1 µM", "quantity": "remaining binding", "value": "77%"}
{"Compound": "CNC1C[S+]2CC[S+]3CC[S+](C1)[Ru-4]321([N]=C=S)[n]2c3ccc(OC)cc3c3c4c(c5cc(F)c[n+]1c5c32)C(=O)NC4=O (centres unmarked)", "assay": "KinomeScan", "conditions": "0.1 µM", "how to read": "reference: untreated", "quantity": "remaining binding", "value": "100%"}
{"Compound": "CNC(=O)C1CCN(c2cc(C)c(F)cc2NC(=O)c2ccc(-c3cc(O)ccc3C)c(C)c2)CC1", "assay": "binding, competition with immobilised ligand", "conditions": "1 µM", "quantity": "remaining binding", "value": "93%"}
{"Compound": "C=CC(=O)N1CCCC(n2c(=O)c3ncccc3n(Cc3ccc(Oc4ccccc4)cc3)c2=O)C1 (centres unmarked)", "assay": "cell-free assay, competition with immobilised ligand", "conditions": "1 µM", "quantity": "remaining binding", "value": "75%"}
{"Compound": "CCN1CCN(Cc2ccc(C(=O)Nc3ccc(C)c(NCc4cnc5[nH]ccc5c4OC)c3)cc2C(F)(F)F)CC1", "assay": "binding, competition with immobilised ligand", "conditions": "1 µM", "quantity": "remaining binding", "value": "86%"}
{"Compound": "C=CC(=O)N1Cc2nc(-c3cc(-c4cc(Cl)cnc4Cl)c(F)cc3F)n(-c3ccncn3)c2C1", "assay": "cell-free assay", "conditions": "1 µM", "quantity": "inhibition", "value": "-3%"}
{"Compound": "CN1CCN(Cc2ccc(-c3ccc(CO[C@H]4CCC[C@@H]4NC(=O)c4cc(-c5cnn(C)c5)cnc4N)cc3)cc2)CC1", "assay": "enzyme activity, inhibitor", "conditions": "0.1 µM", "quantity": "inhibition", "value": "6%"}
{"Compound": "COc1cc(Nc2nccc(-c3cnn4nc(OC)ccc34)n2)cc(C(F)(F)F)c1", "assay": "binding, competition with immobilised ligand", "conditions": "1 µM", "quantity": "remaining binding", "value": "95%"}
{"Compound": "COc1c(Cl)cccc1Nc1c(-c2ccncc2C#C[C@@]2(C)CCCN2C(=O)/C=C/CN(C)C)[nH]c2c1C(=O)NCC2", "assay": "binding, competition with immobilised ligand", "conditions": "3 µM", "quantity": "remaining binding", "value": "98%"}
{"Compound": "COc1cc(Nc2nc(C)cc(-c3cnn4nc(OC)ccc34)n2)cc(C(F)(F)F)c1", "assay": "inhibitor", "conditions": "1 µM", "how to read": "reference: control", "quantity": "remaining activity", "value": "92%"}
{"Compound": "CC(C)=CC1OC(C)(C)C2C=C3C(=O)C(Cl)=CC(O)C3C3C(O)C4OC4C(=O)C132 (centres unmarked)", "assay": "cell-free assay, competition with immobilised ligand", "conditions": "10 µM", "quantity": "remaining binding", "value": "99%"}
{"note": "For quick reference, copied from above:"}
{"Compound": "Nc1ncc2c(n1)-c1c([nH]c3ccc(C4=CCOCC4)cc13)CCC2", "assay": "binding, competition with immobilised ligand", "conditions": "1 µM", "quantity": "remaining binding", "value": "94%"}
{"Compound": "Cc1ccc(-c2c(/C=C(\\C#N)C(=O)NC(C)C)n(CCCO)c3ncnc(N)c23)cc1", "assay": "cell-free assay, competition with immobilised ligand", "conditions": "1 µM", "quantity": "remaining binding", "value": "77%"}
